Measurements from different studies.
Compare with care: the assays were run in different laboratories. “And” joins repeats or separate records; there may be more than shown. ± marks the error that the study gave.

O=C(N1CCCC1)n1cc(-c2ccc(-c3ccccc3)cc2)nn1 — SILAC ratio per peptide (mouse T cells; N-terminal labelling proteomics, measured: Serf2 N-terminal peptide; 0.001 µM, 6 h; baseline: DMSO): 1.11 and 0.96 and 1.08
Cc1cccc(-c2cccc(C)n2)n1.Cc1cccc(-c2cccc(C)n2)n1.F[P-](F)(F)(F)(F)F.F[P-](F)(F)(F)(F)F.[Ru+2].c1ccc(-c2nc3c4cccnc4c4ncccc4c3[nH]2)cc1 — EC50 (SK-MEL-28; cell viability; normoxia, added: green light 523 nm, 100 J/cm2): 27000 ± 1100 nM
C#CCOC(=O)[C@@]1(C)C=C(C(=O)Nc2cccc(C(=O)Nc3ccc(C)c(Nc4nccc(-c5cccnc5)n4)c3)c2)C(=O)CC1 — phospho-c-Jun level (SH-SY5Y MKK7 active; western blot, measured: phospho-c-Jun Ser73; 3 µM, unit not given; baseline: doxycycline without inhibitor): 0.147
COC(=O)c1cc(NC2=NC(=O)C(=Cc3ccc(N(C)C)cc3)S2)ccc1OC(C)=O — fold change (MCF7; measured: POLA1 mRNA; 0.81 µM (IC50), 24 h; baseline: DMSO): 0.196
CCN(C(=O)c1cc(F)ccc1Oc1nncnc1N1CCC2(C1)CN([C@H](CCCN(C)CCOC)C(C)C)C2)C(C)C — GI50 (Hs-578T; cell growth or viability; 72 h): > 10000 nM
Cc1cc(Cl)cc(-c2ccnc3cc(CN4C(=O)C5C(C4=O)C5(C)C)sc23)c1C[C@@H]1CNCCO1 (some centres unmarked) — apoptotic cells (CHP-212 resistant subline R3; annexin V/PI flow cytometry; 0.3 µM, 48 h): 11.5% and 10.2% and 13.8%
COC1CN([C@H]2CC[C@H]([C@@]3(C)Oc4c(Cl)cc(C(=O)NCc5c(SC)cc(C)[nH]c5=O)c(C)c4O3)CC2)C1 — log2 fold change (RNA-seq, measured: SLC41A2; human, whole blood; dose not given, 24 h; baseline: pretreatment baseline): 1.41
Cc1c(Cl)cccc1Nc1ccccc1C(=O)[Se]CC(=O)Nc1cccc(C(F)(F)F)c1 — GI50 (NCI60 prostate subpanel (PC-3, DU-145); cell growth, inhibitor; five-dose): 1610 nM
CCNc1cc2c(cc1C)C1(c3cc(C)c(NCC)cc3O2)c2ccccc2C(=O)N1N=Cc1c[c-]c(-c2ccccn2)cc1.Cc1c(C)c(-c2ccc(-c3ccccc3)cc2)[c-](C)c1C.[Cl-].[Ir+3] — S phase cells (A549; PI flow cytometry; 0.5 x IC50, 24 h): 30.19 ± 0.12%
CC(C)Cc1ccc(C(C)C(=O)[Se]CC(=O)Nc2cccc(C(F)(F)F)c2)cc1 (centres unmarked) — mean TGI (NCI60 prostate subpanel (PC-3, DU-145); total growth inhibition, inhibitor; five-dose): 3790 nM
CCN(CC)CC(=O)Nc1cccc(-n2cc(-c3ccc4ccc(-c5cn(-c6cccc(NC(=O)CN(CC)CC)c6)nn5)cc4c3)nn2)c1 — fold regulation (RCC4; PCR angiogenesis array, measured: COL4A3; 5 x IC50, 6 h, normoxia; baseline: untreated): -1.22
CC(C)c1ccc(N(C)c2ccc3c(c2)OCC[C@H]3CNc2cnccc2C(=O)O)cc1 — IC50 (HSC-4; cell viability; 7 days): 6.95 nM
CC[C@H](C)[C@H](NC(=O)[C@@H](NC(=O)[C@H](CCC(=O)O)NC(=O)[C@H](C)NC(=O)[C@H](C)NC(=O)[C@H](CCC(=O)O)NC(=O)[C@H](Cc1ccc(C(=O)c2ccccc2)cc1)NC(=O)[C@H](Cc1ccccc1)NC(=O)[C@@H](NC(=O)[C@@H](NC(=O)[C@H](CCCNC(=N)N)NC(=O)[C@H](C)NC(=O)[C@H](CC(N)=O)NC(=O)[C@H](CCCCN)NC(=O)[C@H](CCCNC(=N)N)NC(=O)[C@H](CCCCN)NC(=O)[C@H](CCCNC(=N)N)NC(=O)[C@H](CCCCN)NC(=O)[C@@H]1CCCN1C(=O)[C@H](CCCNC(=N)N)NC(=O)[C@H](CCCCN)NC(=O)[C@H](CCCNC(=N)N)NC(=O)[C@H](CCCNC(=N)N)NC(C)=O)C(C)C)[C@@H](C)O)[C@@H](C)CC)C(N)=O — responder cells (HeLa cells; calcium release, Fluo-4 imaging; 40 µM): 93%
CSC(=S)N/N=C(\C)c1ccc(Nc2nnc(-c3ccc(Cl)cc3)c3ccccc23)cc1 — cell death (MCF7; cell growth or viability, MTT; 0.625 µM): 87.2%
CN1CCN(C(=O)c2ccc(-c3cc4c(N5CCC[C@H](C(=O)NCc6ccc(OC(F)(F)F)cc6)C5)ncnc4[nH]3)cc2)CC1 — inhibition (NCI-H3122; cell growth or viability, MTT; 0.04 µg/mL, 72 h): 27.5%
CN1CCCNC(=O)c2cccc(c2)C(=O)NCCCN(C)CCCNc2cccc3c2C(=O)c2cccc(c2C3=O)NCCC1 — log2 fold change (SAS; RNA-Seq, measured: NSUN2 mRNA; 1 µM, 6 h; baseline: untreated cells): -0.543
Cc1cc(NC2CCN(C)CC2)ccc1-c1cc2c(N3CCC[C@H](C(=O)N[C@H](C)c4ccccc4)C3)ncnc2[nH]1 — inhibition (NCI-H3122; cell growth or viability, MTT; 1 µg/mL, 72 h): 80.5%
N#C[C@@H]1CC(F)(F)CN1C(=O)CNC(=O)c1ccnc2c(NC(=O)CCOCCOCCOCCOCCOCCOCCNC(=O)[C@H](CCCCNC(=O)CN3CCN(CC(=O)[O-])CCN(CC(=O)[O-])CCN(CC(=O)[O-])CC3)NC(=O)CCCc3ccc(I)cc3)cccc12.[177Lu+3] — cell uptake (U-87 MG; 4 h; baseline: added dose): 12.2 ± 0.82%
Cc1n[nH]c(C)c1CCCOc1cc(C(=O)NCCCCC(NC(=O)CN2CCN(CC(=O)[O-])CCN(CC(=O)[O-])CCN(CC(=O)[O-])CC2)C(=O)NCC2CCC(C(=O)NC(Cc3ccc4ccccc4c3)C(=O)NCCCCC(NC(=O)NC(CCC(=O)O)C(=O)O)C(=O)O)CC2)ccc1F.[177Lu+3] (centres unmarked) — uptake (PC-3 (PSMA-negative)): 0.91 ± 0.06%
CSCC[C@H](NC(=O)[C@H](CCC(N)=O)NC(=O)[C@H](CCCCN)NC(=O)[C@H](CCCNC(=N)N)NC(=O)[C@H](Cc1ccc(O)cc1)NC(=O)[C@H](CCCNC(=N)N)NC(=O)[C@H](CO)NC(=O)[C@H](Cc1ccc(O)cc1)NC(=O)[C@H](CO)NC(=O)[C@H](CC(=O)O)NC(=O)[C@@H](NC(=O)[C@@H](N)Cc1ccccc1)[C@@H](C)O)C(=O)N[C@@H](C)C(=O)N[C@H](C(=O)N[C@@H](CCCCN)C(=O)N[C@@H](CCCCn1cc(C[C@H](NC(=O)CNC(=O)[C@H](CO)NC(=O)[C@H](CCCNC(=N)N)NC(=O)[C@H](CO)NC(=O)[C@H](CC(C)C)NC(=O)[C@H](CC(C)C)NC(=O)CNC(=O)[C@H](C)NC(=O)[C@H](CC(C)C)NC(=O)[C@H](CCCNC(=N)N)NC(=O)[C@H](Cc2c[nH]cn2)NC(=O)[C@@H](NC(=O)[C@@H](N)C(C)C)[C@@H](C)O)C(=O)N[C@H](C(=O)N[C@H](C(=O)N[C@@H](CCCCN)C(=O)N[C@@H](CC(N)=O)C(=O)N[C@@H](CC(N)=O)C(=O)N[C@@H](Cc2ccccc2)C(=O)N[C@H](C(=O)N2CCC[C@H]2C(=O)N[C@H](C(=O)N[C@@H](CC(N)=O)C(=O)N[C@H](C(=O)NCC(=O)N[C@@H](CO)C(=O)N[C@@H](CCCCN)C(=O)N[C@@H](C)C(=O)N[C@@H](Cc2ccccc2)C(N)=O)C(C)C)[C@@H](C)O)C(C)C)C(C)C)C(C)C)nn1)C(=O)N[C@@H](Cc1ccc(O)cc1)C(=O)N[C@@H](CC(C)C)C(=O)N[C@@H](C)C(=O)N[C@@H](C)C(=O)N[C@H](C(=O)N[C@@H](CC(C)C)C(=O)NCC(=O)N[C@@H](CCCCN)C(=O)N[C@@H](CCCNC(=N)N)C(=O)N[C@@H](Cc1ccc(O)cc1)C(=O)N[C@@H](CCCCN)C(=O)N[C@@H](CCC(N)=O)C(=O)N[C@@H](CCCNC(=N)N)C(=O)N[C@H](C(=O)N[C@@H](CCCCN)C(=O)N[C@@H](CC(N)=O)C(=O)N[C@@H](CCCCN)C(N)=O)C(C)C)C(C)C)C(C)C — pA2 (transfected COS-7 cells; cAMP accumulation, antagonist; added: VIP): 5.5
O=C(C[Se]C(=O)c1ccccc1Nc1cccc(C(F)(F)F)c1)Nc1cccc(C(F)(F)F)c1 — mean growth percent (NCI60 prostate subpanel (PC-3, DU-145); cell growth; 10 µM, 48 h, one-dose): -84.6%
CNc1ncnc2c1ncn2C1OC(CO)C(O)C1O (centres unmarked) — AP-TGFα release (mock-transfected cells; TGFα shedding, agonist; 1 nM; baseline: unstimulated vehicle control): 0.23% and -0.67% and -0.18%
Cc1ncsc1-c1ccc(C(C)NC(=O)C2CC(O)CN2C(=O)C(NC(=O)CCCCCCCCCCN2CCCC(Nc3ncc(Cl)c(Nc4ccccc4S(=O)(=O)C(C)C)n3)C2)C(C)(C)C)cc1 (centres unmarked) — log2 fold change (22Rv1; RNA-seq, measured: ZNF248 mRNA; concentration not given; baseline: DMSO): -1.05
Cc1cccc(-c2cccc(C)n2)n1.Cc1cccc(-c2cccc(C)n2)n1.F[P-](F)(F)(F)(F)F.F[P-](F)(F)(F)(F)F.[Ru+2].c1ccc2c(-c3nc4c5cccnc5c5ncccc5c4[nH]3)c3ccccc3cc2c1 — EC50 (SK-MEL-28; cell viability; normoxia, added: blue light 453 nm, 100 J/cm2): 662 ± 7 nM
CNS(=O)(=O)Nc1nccc(Cc2c(C)c3ccc(Oc4ncccc4F)cc3oc2=O)c1F — IC50 (SK-MEL-1; cell viability; 7 days): 2.14 nM
CO[C@@H]1[C@@H](OC(N)=O)[C@@H](O)[C@H](Oc2ccc3c(O)c(NC(=O)c4ccc(O)c(CC=C(C)C)c4)c(=O)oc3c2C)OC1(C)C — colony count (DLD-1 BRCA2-/-; 100 µM, replicate 2): 0.1
Cc1cccc(-c2cccc(C)n2)n1.Cc1cccc(-c2cccc(C)n2)n1.F[P-](F)(F)(F)(F)F.F[P-](F)(F)(F)(F)F.[Ru+2].c1ccc2c(c1)Cc1cc(-c3nc4c5cccnc5c5ncccc5c4[nH]3)ccc1-2 — phototoxicity index (SK-MEL-28; 1% O2, added: blue light 453 nm, 100 J/cm2; baseline: dark over light EC50): 1
O=C(C[Se]C(=O)c1ccc2ccccc2n1)Nc1cccc(C(F)(F)F)c1 — mean growth percent (NCI60 prostate subpanel (PC-3, DU-145); cell growth; 10 µM, 48 h, one-dose): -88.9%
Cn1ncc2cc(-c3cncc(Cl)c3N3CCC4(CCNC4=O)CC3)ccc21 — fold change in expression (LS174T; microarray, measured: CXCL8; concentration not given, 24 h, gene set IL-8; baseline: untreated cells): -26.3

For quick reference, copied from above:
Cc1n[nH]c(C)c1CCCOc1cc(C(=O)NCCCCC(NC(=O)CN2CCN(CC(=O)[O-])CCN(CC(=O)[O-])CCN(CC(=O)[O-])CC2)C(=O)NCC2CCC(C(=O)NC(Cc3ccc4ccccc4c3)C(=O)NCCCCC(NC(=O)NC(CCC(=O)O)C(=O)O)C(=O)O)CC2)ccc1F.[177Lu+3] (centres unmarked) — uptake (PC-3 (PSMA-negative)): 0.91 ± 0.06%
CSCC[C@H](NC(=O)[C@H](CCC(N)=O)NC(=O)[C@H](CCCCN)NC(=O)[C@H](CCCNC(=N)N)NC(=O)[C@H](Cc1ccc(O)cc1)NC(=O)[C@H](CCCNC(=N)N)NC(=O)[C@H](CO)NC(=O)[C@H](Cc1ccc(O)cc1)NC(=O)[C@H](CO)NC(=O)[C@H](CC(=O)O)NC(=O)[C@@H](NC(=O)[C@@H](N)Cc1ccccc1)[C@@H](C)O)C(=O)N[C@@H](C)C(=O)N[C@H](C(=O)N[C@@H](CCCCN)C(=O)N[C@@H](CCCCn1cc(C[C@H](NC(=O)CNC(=O)[C@H](CO)NC(=O)[C@H](CCCNC(=N)N)NC(=O)[C@H](CO)NC(=O)[C@H](CC(C)C)NC(=O)[C@H](CC(C)C)NC(=O)CNC(=O)[C@H](C)NC(=O)[C@H](CC(C)C)NC(=O)[C@H](CCCNC(=N)N)NC(=O)[C@H](Cc2c[nH]cn2)NC(=O)[C@@H](NC(=O)[C@@H](N)C(C)C)[C@@H](C)O)C(=O)N[C@H](C(=O)N[C@H](C(=O)N[C@@H](CCCCN)C(=O)N[C@@H](CC(N)=O)C(=O)N[C@@H](CC(N)=O)C(=O)N[C@@H](Cc2ccccc2)C(=O)N[C@H](C(=O)N2CCC[C@H]2C(=O)N[C@H](C(=O)N[C@@H](CC(N)=O)C(=O)N[C@H](C(=O)NCC(=O)N[C@@H](CO)C(=O)N[C@@H](CCCCN)C(=O)N[C@@H](C)C(=O)N[C@@H](Cc2ccccc2)C(N)=O)C(C)C)[C@@H](C)O)C(C)C)C(C)C)C(C)C)nn1)C(=O)N[C@@H](Cc1ccc(O)cc1)C(=O)N[C@@H](CC(C)C)C(=O)N[C@@H](C)C(=O)N[C@@H](C)C(=O)N[C@H](C(=O)N[C@@H](CC(C)C)C(=O)NCC(=O)N[C@@H](CCCCN)C(=O)N[C@@H](CCCNC(=N)N)C(=O)N[C@@H](Cc1ccc(O)cc1)C(=O)N[C@@H](CCCCN)C(=O)N[C@@H](CCC(N)=O)C(=O)N[C@@H](CCCNC(=N)N)C(=O)N[C@H](C(=O)N[C@@H](CCCCN)C(=O)N[C@@H](CC(N)=O)C(=O)N[C@@H](CCCCN)C(N)=O)C(C)C)C(C)C)C(C)C — pA2 (transfected COS-7 cells; cAMP accumulation, antagonist; added: VIP): 5.5
O=C(C[Se]C(=O)c1ccccc1Nc1cccc(C(F)(F)F)c1)Nc1cccc(C(F)(F)F)c1 — mean growth percent (NCI60 prostate subpanel (PC-3, DU-145); cell growth; 10 µM, 48 h, one-dose): -84.6%
